Assay results from different studies.
Compare with care: the assays were run in different laboratories. Numbers after ± are the reported error.
Sequence of UniProt O75469 (whole entry, looked up): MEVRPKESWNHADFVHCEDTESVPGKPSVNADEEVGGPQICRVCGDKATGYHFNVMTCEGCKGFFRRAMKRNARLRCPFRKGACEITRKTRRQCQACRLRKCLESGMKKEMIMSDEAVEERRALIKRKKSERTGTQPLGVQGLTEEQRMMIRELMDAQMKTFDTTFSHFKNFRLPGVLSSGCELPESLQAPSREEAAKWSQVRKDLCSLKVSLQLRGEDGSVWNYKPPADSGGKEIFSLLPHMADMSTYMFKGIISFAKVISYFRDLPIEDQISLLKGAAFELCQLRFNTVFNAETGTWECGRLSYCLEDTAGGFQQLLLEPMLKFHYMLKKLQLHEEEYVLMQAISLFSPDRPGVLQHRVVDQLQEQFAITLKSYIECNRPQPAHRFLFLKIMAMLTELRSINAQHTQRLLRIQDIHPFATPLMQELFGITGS

Substance = DPDPE; test = RP-HPLC; system = HALO Peptide ES-C18 column; setting = 25 µM, acetic acid/methanol, 10 min gradient; quantity = retention time; value = 7.95 min
Substance = calpain inhibitor III; tested on = Huh-7-ACE2; test = cell viability; quantity = CC50; value = > 2500 nM
Substance = abamectin; tested on = NR1I2 (Homo sapiens, UniProt O75469); setting = concentration not given; quantity = activity; value = inactive
Substance = QAKTFLDKFNHEAEDLFYQ; test = circular dichroism; system = peptide, water/TFE 1:1 v/v; setting = 200 µM, 25 °C; quantity = alpha-helix content; value = 63.3%
Substance = capreomycin sulfate; system = guinea pig, serum; setting = insufflation, dose not given, dry powder combination single dose; quantity = Tmax; value = 21.4 min
Substance = heparin sodium; system = healthy Chinese adult volunteers; setting = continuous intravenous infusion, 8 IU/kg/h, 5 days; quantity = elevated neutrophil; value = 0%
Substance = TYGPVFMCL; tested on = HLA-A24 complex with compound; test = nanoDSF; system = peptide; setting = pH 7.6, 2 µM complex; quantity = Tm; value = 64.9 ± 0.1 °C
Substance = mastoparan; tested on = Swiss 3T3 quiescent; quantity = lowest cytotoxic concentration; value = 25 to 30 µM
Substance = benzalkonium chloride; tested on = PC-12; test = CCK-8; setting = 10 µM, light-degraded residues of compound, with: sunlight 100 mW/cm^2 for 4 h; quantity = cell viability; value = ~40%
Substance = insulin human; test = refers to: GLS mRNA; system = uninfected mouse, brain; setting = i.p., dose not given; how to read = baseline: PBS; quantity = fold change; value = 1.1
Substance = Ac-LRKLRKRLLRDWLKAFYDKVAEKLKEAF-NH2 (N-acetyl, C-amide); tested on = THP-1 derived macrophages; system = peptide; setting = 2 h pulse, 360 min chase, heparin wash; quantity = cell-associated peptide; value = 61 ± 1.2%
Substance = Polymyxin B; system = mouse, urine; setting = 20 mg/kg; quantity = cystatin C level; value = 31.7 ng/mL

Some of these lines once more:
Substance = capreomycin sulfate; system = guinea pig, serum; setting = insufflation, dose not given, dry powder combination single dose; quantity = Tmax; value = 21.4 min
